Measurements from different studies.
Parts stem from different laboratories: compare values within a part only.
UniProt Q6VAB6, sequence (whole entry, looked up): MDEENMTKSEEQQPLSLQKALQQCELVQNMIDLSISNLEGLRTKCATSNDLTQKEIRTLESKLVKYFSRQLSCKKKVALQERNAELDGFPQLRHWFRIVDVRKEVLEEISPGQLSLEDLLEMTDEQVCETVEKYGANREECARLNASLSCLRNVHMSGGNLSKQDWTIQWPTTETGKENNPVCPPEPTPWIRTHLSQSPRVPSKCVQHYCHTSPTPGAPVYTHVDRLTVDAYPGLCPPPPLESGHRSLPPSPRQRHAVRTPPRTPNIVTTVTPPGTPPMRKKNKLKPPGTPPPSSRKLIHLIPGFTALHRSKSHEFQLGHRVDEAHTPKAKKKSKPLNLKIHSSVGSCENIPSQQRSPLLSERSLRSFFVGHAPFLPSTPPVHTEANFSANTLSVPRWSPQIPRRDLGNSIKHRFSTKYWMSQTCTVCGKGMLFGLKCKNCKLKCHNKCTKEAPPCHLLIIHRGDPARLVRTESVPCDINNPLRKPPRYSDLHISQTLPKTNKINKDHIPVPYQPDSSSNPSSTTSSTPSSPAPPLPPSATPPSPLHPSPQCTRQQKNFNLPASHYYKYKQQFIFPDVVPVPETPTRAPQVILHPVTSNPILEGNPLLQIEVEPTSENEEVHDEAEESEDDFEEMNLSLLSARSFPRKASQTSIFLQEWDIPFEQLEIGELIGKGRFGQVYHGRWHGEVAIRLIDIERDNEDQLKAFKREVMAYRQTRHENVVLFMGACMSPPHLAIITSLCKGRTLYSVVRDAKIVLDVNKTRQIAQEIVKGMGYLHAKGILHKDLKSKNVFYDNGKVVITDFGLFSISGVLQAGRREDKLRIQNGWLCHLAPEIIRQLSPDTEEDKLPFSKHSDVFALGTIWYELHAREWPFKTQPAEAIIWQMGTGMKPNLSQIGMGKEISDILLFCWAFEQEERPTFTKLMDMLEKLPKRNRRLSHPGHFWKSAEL
UniProt Q16584, sequence (whole entry, looked up): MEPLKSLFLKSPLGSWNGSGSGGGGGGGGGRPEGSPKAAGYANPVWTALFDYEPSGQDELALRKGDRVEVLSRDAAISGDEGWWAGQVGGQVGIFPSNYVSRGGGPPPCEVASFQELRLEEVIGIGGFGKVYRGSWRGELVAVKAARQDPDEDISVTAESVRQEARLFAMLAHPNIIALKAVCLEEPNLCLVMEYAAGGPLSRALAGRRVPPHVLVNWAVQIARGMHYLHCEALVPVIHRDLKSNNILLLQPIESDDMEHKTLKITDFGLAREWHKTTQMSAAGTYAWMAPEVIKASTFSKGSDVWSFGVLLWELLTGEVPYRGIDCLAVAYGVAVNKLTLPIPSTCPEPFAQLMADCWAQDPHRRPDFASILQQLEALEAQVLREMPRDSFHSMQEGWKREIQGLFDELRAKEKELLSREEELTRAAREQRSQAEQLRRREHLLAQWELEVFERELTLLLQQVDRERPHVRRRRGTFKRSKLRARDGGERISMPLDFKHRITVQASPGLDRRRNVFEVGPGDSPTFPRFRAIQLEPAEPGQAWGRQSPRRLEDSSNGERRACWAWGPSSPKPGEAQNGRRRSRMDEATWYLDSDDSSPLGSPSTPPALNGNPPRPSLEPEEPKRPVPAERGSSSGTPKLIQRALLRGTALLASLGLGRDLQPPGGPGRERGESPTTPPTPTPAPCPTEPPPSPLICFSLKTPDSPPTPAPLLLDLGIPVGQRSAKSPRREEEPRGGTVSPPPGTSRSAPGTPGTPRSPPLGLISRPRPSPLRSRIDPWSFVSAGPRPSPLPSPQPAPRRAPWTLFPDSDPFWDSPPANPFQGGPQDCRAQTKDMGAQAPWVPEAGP
UniProt Q5BJF2, sequence (whole entry, looked up): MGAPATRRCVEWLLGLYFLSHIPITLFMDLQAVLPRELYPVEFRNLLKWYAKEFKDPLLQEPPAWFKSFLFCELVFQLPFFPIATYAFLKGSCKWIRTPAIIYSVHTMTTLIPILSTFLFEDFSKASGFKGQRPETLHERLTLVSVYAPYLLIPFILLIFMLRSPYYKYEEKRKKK
UniProt Q13237, sequence (whole entry, looked up): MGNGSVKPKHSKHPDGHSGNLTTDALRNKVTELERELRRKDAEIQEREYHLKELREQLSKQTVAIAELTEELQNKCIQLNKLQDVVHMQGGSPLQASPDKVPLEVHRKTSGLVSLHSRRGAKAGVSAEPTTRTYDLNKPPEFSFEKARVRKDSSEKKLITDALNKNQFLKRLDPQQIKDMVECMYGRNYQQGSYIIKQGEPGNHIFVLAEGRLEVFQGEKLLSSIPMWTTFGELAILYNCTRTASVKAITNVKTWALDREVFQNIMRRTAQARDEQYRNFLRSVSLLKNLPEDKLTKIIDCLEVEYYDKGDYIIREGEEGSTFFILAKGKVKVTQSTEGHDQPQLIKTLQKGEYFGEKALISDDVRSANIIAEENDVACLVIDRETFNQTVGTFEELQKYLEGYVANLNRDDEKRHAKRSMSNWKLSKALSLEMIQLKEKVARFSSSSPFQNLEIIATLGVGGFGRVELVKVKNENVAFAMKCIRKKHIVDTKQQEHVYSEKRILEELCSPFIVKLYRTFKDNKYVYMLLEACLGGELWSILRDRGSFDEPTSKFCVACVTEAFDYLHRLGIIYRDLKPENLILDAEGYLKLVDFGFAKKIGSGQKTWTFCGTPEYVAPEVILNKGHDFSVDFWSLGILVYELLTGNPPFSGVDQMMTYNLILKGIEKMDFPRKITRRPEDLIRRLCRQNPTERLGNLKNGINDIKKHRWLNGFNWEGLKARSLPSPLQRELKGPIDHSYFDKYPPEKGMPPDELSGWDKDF
UniProt Q9NY57, sequence (whole entry, looked up): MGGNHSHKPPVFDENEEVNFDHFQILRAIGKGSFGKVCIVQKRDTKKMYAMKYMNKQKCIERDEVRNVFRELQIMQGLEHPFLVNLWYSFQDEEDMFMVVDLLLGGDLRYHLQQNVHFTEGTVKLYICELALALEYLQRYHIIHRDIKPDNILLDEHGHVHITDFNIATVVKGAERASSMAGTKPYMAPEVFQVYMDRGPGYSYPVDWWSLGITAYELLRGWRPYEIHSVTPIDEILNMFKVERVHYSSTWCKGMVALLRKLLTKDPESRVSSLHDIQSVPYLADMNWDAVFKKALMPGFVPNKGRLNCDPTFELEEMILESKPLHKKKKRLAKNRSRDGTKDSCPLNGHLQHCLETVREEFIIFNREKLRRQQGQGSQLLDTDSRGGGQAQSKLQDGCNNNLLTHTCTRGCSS
UniProt P28221, sequence (whole entry, looked up): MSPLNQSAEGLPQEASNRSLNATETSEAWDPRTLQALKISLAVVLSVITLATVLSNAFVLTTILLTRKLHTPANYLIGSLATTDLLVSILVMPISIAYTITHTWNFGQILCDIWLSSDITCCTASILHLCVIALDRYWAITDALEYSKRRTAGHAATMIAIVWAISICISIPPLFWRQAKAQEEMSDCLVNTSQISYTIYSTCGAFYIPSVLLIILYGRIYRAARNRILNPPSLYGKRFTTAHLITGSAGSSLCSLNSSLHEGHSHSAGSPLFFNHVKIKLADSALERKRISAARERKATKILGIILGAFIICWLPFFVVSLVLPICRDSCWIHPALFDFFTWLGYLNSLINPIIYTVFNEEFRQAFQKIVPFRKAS
UniProt Q99720, sequence (whole entry, looked up): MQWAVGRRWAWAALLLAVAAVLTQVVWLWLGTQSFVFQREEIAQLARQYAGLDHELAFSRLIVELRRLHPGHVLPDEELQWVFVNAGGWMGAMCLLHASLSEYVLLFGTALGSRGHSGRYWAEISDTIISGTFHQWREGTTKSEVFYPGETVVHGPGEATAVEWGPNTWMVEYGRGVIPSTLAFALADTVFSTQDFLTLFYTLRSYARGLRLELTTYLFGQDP

Series 1
Target: Tyrosine-protein kinase Blk (BLK, Homo sapiens, UniProt P51451)
UniProt P51451, sequence (whole entry, looked up): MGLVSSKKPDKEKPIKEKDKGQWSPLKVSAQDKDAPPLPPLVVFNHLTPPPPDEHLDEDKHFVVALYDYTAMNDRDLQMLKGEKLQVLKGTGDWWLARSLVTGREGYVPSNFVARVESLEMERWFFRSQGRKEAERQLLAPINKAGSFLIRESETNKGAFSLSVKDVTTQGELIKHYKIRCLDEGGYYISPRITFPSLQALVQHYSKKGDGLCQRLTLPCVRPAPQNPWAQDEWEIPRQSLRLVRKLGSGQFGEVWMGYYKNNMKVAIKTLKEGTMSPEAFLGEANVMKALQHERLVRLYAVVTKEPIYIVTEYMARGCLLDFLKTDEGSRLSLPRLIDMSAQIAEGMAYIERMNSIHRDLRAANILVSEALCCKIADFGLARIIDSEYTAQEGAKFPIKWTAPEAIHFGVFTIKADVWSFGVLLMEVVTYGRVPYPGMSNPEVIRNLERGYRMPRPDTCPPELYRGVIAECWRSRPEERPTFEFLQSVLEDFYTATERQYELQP
Effect on: enzyme activity
Action: inhibitor
Tested at: 0.5 µM
Reference: control
SMILES	remaining activity [%]
N#CC(C#N)=C(N)/C(C#N)=C/c1ccc(O)cc1	101
CNC(=O)c1cc(Oc2ccc(NC(=O)Nc3ccc(Cl)c(C(F)(F)F)c3)cc2)ccn1	99.1
CN(C)c1ccc(C=C2C(=O)Nc3ccccc32)cc1	99.2
O=c1c2ccccc2[nH]c(=S)n1CCN1CCC(=C(c2ccc(F)cc2)c2ccc(F)cc2)CC1	102
Cc1nc(-c2ccccc2)c(-c2ccncc2)o1	95.4
CCOC(=O)c1c(C)[nH]c(/C=C2\C(=O)Nc3ccccc32)c1C	80.2
COc1ccc(C(=O)Nc2sc3c(c2C(N)=O)CCCC3)cc1OC	102
Nc1ncnc2n[nH]c(Nc3ccc(F)cc3)c12	101
Oc1ccc(-c2nc(-c3ccncc3)c(-c3ccc(F)cc3)[nH]2)cc1	101
CO[C@H]1C[C@@H]2CC[C@@H](C)[C@@](O)(O2)C(=O)C(=O)N2CCCC[C@H]2C(=O)O[C@H]([C@H](C)C[C@@H]2CC[C@@H](O)[C@H](OC)C2)CC(=O)[C@H](C)/C=C(\C)[C@@H](O)[C@@H](OC)C(=O)[C@H](C)C[C@H](C)/C=C/C=C/C=C/1C	94.8
NCCNc1ncc(C(N)=O)c(Nc2cccc(C(F)(F)F)c2)n1	81.2
O=S(=O)(c1cccc2cnccc12)N1CCCNCC1	85.3
Cc1ccc(Nc2nccc(N(C)c3ccc4c(C)n(C)nc4c3)n2)cc1S(N)(=O)=O	75.6
O=C(O)c1ccc2c3c1cccc3c(=O)n1c3ccccc3nc21	100

Series 2
Target: Calcium/calmodulin-dependent protein kinase type II subunit alpha (CAMK2A, Homo sapiens, UniProt Q9UQM7)
UniProt Q9UQM7, sequence (whole entry, looked up): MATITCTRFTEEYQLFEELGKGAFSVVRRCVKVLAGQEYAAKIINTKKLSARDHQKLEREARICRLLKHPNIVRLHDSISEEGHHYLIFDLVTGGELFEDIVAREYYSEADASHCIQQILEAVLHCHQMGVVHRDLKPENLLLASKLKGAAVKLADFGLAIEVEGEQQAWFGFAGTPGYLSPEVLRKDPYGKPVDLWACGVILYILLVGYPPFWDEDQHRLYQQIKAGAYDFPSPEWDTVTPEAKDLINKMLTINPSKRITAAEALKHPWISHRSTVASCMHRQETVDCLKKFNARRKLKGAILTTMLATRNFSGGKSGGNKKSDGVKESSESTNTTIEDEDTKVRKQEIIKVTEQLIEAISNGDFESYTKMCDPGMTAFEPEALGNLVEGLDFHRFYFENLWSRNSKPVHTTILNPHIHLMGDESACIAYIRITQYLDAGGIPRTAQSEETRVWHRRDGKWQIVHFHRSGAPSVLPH
Effect on: enzyme activity
Action: inhibitor
Tested at: 10 µM
Structure (SMILES)	inhibition [%]
C=C[C@](C)(O)CC[C@H]1C(=C)CC[C@H]2C(C)(C)CCC[C@]12C	-33
CC(C)(C(=O)c1cccnc1)c1cccnc1	-11
CNCC(=O)N[C@@H](CCCNC(=N)N)C(=O)N[C@H](C(=O)N[C@@H](Cc1ccc(O)cc1)C(=O)N[C@H](C(=O)N[C@@H](Cc1cnc[nH]1)C(=O)N1CCC[C@H]1C(=O)N[C@@H](C)C(=O)O)C(C)C)C(C)C	-2
COc1ccc(-c2oc3c(CC=C(C)C)c(O[C@@H]4O[C@H](CO)[C@@H](O)[C@H](O)[C@H]4O)cc(O)c3c(=O)c2O[C@@H]2O[C@@H](C)[C@H](O)[C@@H](O[C@@H]3O[C@H](CO)[C@@H](O)[C@H](O)[C@H]3O)[C@H]2O)cc1	-6
O=C(O)[C@H]1O[C@@H](Oc2cc(-c3cc(=O)c4c(O)cc(O)cc4o3)ccc2O)[C@H](O)[C@@H](O)[C@@H]1O	-27
CC(C)[C@@H]1NC(=O)CNC(=O)[C@H](C)NC(=O)[C@H](Cc2c[nH]c3ccccc23)NC(=O)[C@H](C)NC1=O	-54
CC(=O)N[C@@H](Cc1c[nH]c2ccccc12)C(=O)O	37
O=C(O)c1cc(/N=N/c2ccc(S(=O)(=O)Nc3ccccn3)cc2)ccc1O	-2
C=C1CC[C@@H]2[C@](C)(CO)[C@H](O)CC[C@@]2(C)[C@@H]1C/C=C1/C(=O)OC[C@H]1O	-6
COc1ccc2nc3cc(Cl)ccc3c(Nc3cc(CN4CCCC4)c(O)c(CN4CCCC4)c3)c2n1	6
CCCCCCCC(=O)CCc1ccc(O)c(OC)c1	-18
CC(C)[N+](C)(CCOC(=O)C1c2ccccc2Oc2ccccc21)C(C)C	2
CC(C)C[C@@](O)(CC(=O)OCc1ccc(O[C@@H]2O[C@H](CO)[C@@H](O)[C@H](O)[C@H]2O)cc1)C(=O)OCc1ccc(O[C@@H]2O[C@H](CO)[C@@H](O)[C@H](O)[C@H]2O)cc1	-16
CCCOC(C(=O)OC1CCN(C)CC1)(c1ccccc1)c1ccccc1	3

Series 3
Structure (SMILES): N#CN1CC[C@@H](C(=O)Nc2nc3c(s2)CN(C(=O)CN=[N+]=[N-])CC3)C1
Tested at: 10 µM
target	test	inhibition [%]
D(3) dopamine receptor (DRD3, Homo sapiens, UniProt P35462)	binding, radioligand binding	-11.7
Sigma non-opioid intracellular receptor 1 (SIGMAR1, Homo sapiens, UniProt Q99720)	binding, radioligand binding	6.56
D(2) dopamine receptor (DRD2, Homo sapiens, UniProt P14416)	binding, radioligand binding	4.82
Beta-2 adrenergic receptor (ADRB2, Homo sapiens, UniProt P07550)	binding, radioligand binding	-8.12
5-hydroxytryptamine receptor 1B (HTR1B, Homo sapiens, UniProt P28222)	binding, radioligand binding	6.13
5-hydroxytryptamine receptor 1D (HTR1D, Homo sapiens, UniProt P28221)	cell-free assay	20.9
Sigma intracellular receptor 2 (TMEM97, Homo sapiens, UniProt Q5BJF2)	binding, radioligand binding	-18.7
Muscarinic acetylcholine receptor M5 (CHRM5, Homo sapiens, UniProt P08912)	binding, radioligand binding	2.94
Alpha-1A adrenergic receptor (ADRA1A, Homo sapiens, UniProt P35348)	binding, radioligand binding	3.73
Histamine H3 receptor (HRH3, Homo sapiens, UniProt Q9Y5N1)	binding, radioligand binding	-2.11

Series 4
SMILES: O=C(Nc1cnn(-c2csc(C(=O)NC3COC3)c2)c1)Nc1ccccc1Cl
Effect on: enzyme activity
Tested at: 5 µM
target	test	scale	remaining activity [%]
Dual specificity testis-specific protein kinase 2 (TESK2, Homo sapiens, UniProt Q96S53)	inhibitor		93.3
Serine/threonine-protein kinase 32B (STK32B, Homo sapiens, UniProt Q9NY57)		reference: untreated control	122
Serine/threonine-protein kinase LATS2 (LATS2, Homo sapiens, UniProt Q9NRM7)		reference: untreated control	92.7
Kinase suppressor of Ras 2 (KSR2, Homo sapiens, UniProt Q6VAB6)	inhibitor		107
Serine/threonine-protein kinase Nek5 (NEK5, Homo sapiens, UniProt Q6P3R8)		reference: untreated control	107
Serine/threonine-protein kinase PLK3 (PLK3, Homo sapiens, UniProt Q9H4B4)		reference: untreated control	93.6
Serine/threonine-protein kinase/endoribonuclease IRE2 (ERN2, Homo sapiens, UniProt Q76MJ5)	inhibitor		100
cGMP-dependent protein kinase 2 (PRKG2, Homo sapiens, UniProt Q13237)		reference: untreated control	97.4
Calcium/calmodulin-dependent protein kinase type 1B (PNCK, Homo sapiens, UniProt Q6P2M8)		reference: untreated control	96.3
TGF-beta receptor type-1 (TGFBR1, Homo sapiens, UniProt P36897)		reference: untreated control	101
Mitogen-activated protein kinase kinase kinase 11 (MAP3K11, Homo sapiens, UniProt Q16584)		reference: untreated control	92.6

Repeated from above (series 2):
Structure (SMILES)	inhibition [%]
CNCC(=O)N[C@@H](CCCNC(=N)N)C(=O)N[C@H](C(=O)N[C@@H](Cc1ccc(O)cc1)C(=O)N[C@H](C(=O)N[C@@H](Cc1cnc[nH]1)C(=O)N1CCC[C@H]1C(=O)N[C@@H](C)C(=O)O)C(C)C)C(C)C	-2
COc1ccc(-c2oc3c(CC=C(C)C)c(O[C@@H]4O[C@H](CO)[C@@H](O)[C@H](O)[C@H]4O)cc(O)c3c(=O)c2O[C@@H]2O[C@@H](C)[C@H](O)[C@@H](O[C@@H]3O[C@H](CO)[C@@H](O)[C@H](O)[C@H]3O)[C@H]2O)cc1	-6
O=C(O)[C@H]1O[C@@H](Oc2cc(-c3cc(=O)c4c(O)cc(O)cc4o3)ccc2O)[C@H](O)[C@@H](O)[C@@H]1O	-27
CC(C)[C@@H]1NC(=O)CNC(=O)[C@H](C)NC(=O)[C@H](Cc2c[nH]c3ccccc23)NC(=O)[C@H](C)NC1=O	-54
CC(=O)N[C@@H](Cc1c[nH]c2ccccc12)C(=O)O	37
O=C(O)c1cc(/N=N/c2ccc(S(=O)(=O)Nc3ccccn3)cc2)ccc1O	-2
C=C1CC[C@@H]2[C@](C)(CO)[C@H](O)CC[C@@]2(C)[C@@H]1C/C=C1/C(=O)OC[C@H]1O	-6
